Measured values of several laboratories.
Each line is one published result; not all experiments were run side by side. Several values in a cell are separate wells, animals, samples, runs or records. ± gives the spread as reported.

For `CCOCc1nc(O)c(-c2nnc(Cc3ccc(Cl)cn3)o2)c(O)c1-c1c(OC)cccc1OC`, “stroke volume change” read 39% (renal hypertensive rat; sc infusion, 0.192 mg/kg/day, repeat dosing; relative to: vehicle).
`COc1ccc(O)c(C(C)(C)C)c1` gave an absorbance of 1.66 ± 0.051 (Fe3+ reduction, ferricyanide reduction; 30 µg/mL).
`Clc1cc2c(cc1Cl)Oc1cc(Cl)c(Cl)cc1O2` gave a mRNA level of 5.3 fold (RNA-Seq, refers to: Ptgis; female Sprague-Dawley rat, liver; dose not given; relative to: vehicle).
The EC50 of `CCSc1nc2ccccc2n1Cc1nnc(-c2ccc(F)c(OC)c2)o1` is reported as 0.28 ± 0.21 µg/mL (relaxation; isolated rabbit jejunum; spontaneous contractions).
Under “ADAS-Cog score change”, `Cc1cn(-c2cc(NC(=O)c3ccc(C)c(Nc4nccc(-c5cccnc5)n4)c3)cc(C(F)(F)F)c2)cn1` is recorded as -3 (human patients; dose not given, 6 months vs baseline; relative to: placebo, direction not given).
`COCC1=N[C@]23c4c(OC)cc(OC)cc4O[C@@]2(c2ccc(OC)cc2)[C@H](c2ccccc2)[C@@H](C(=O)N(C)OC)[C@]3(O)N1` gave an EC50 of 41 nM (mRNA translation; Krebs-2 cell extracts).
For `Cc1nc(Nc2ccc(CC(=O)O)cc2)nc(Nc2ccc(F)c(C(F)(F)F)c2)c1C`, “gonadal white adipose weight” read “decreased” (C57BL/6J mouse, high-fat diet MASH model; intraperitoneal, 0.3 mg/kg daily, 60% fat diet for 12 weeks, dosed final four weeks; relative to: untreated).
For `O=C1N(Cc2ccccc2Cl)c2ccccc2C12NN=C(c1ccccc1)S2` (centres unmarked), “log cell kill” read 0 (WSU-FSCCL xenograft, mouse; intravenous, 923.8 mg/kg total).
For `C=CCNc1c(O)cc2c(O)c1C[C@@H](C)C[C@H](OC)[C@H](O)[C@@H](C)/C=C(\C)[C@H](OC(N)=O)[C@@H](OC)/C=C\C=C(/C)C(=O)N2`, “patients with progressive disease” read 24% (RECIST v1.0; human soft tissue sarcoma; concentration not given, best response).
`CCOc1cccc(-c2nnc(Cn3c(SCC)nc4ccccc43)o2)c1O` has an EC50 of 0.16 ± 0.01 µg/mL (relaxation; isolated rabbit jejunum; spontaneous contractions).
`CC[C@H](C)[C@@H]1NC(=O)[C@@H]2CCCN2C(=O)[C@H](CC(C)C)NC(=O)[C@H](CC(C)C)NC(=O)CNC(=O)[C@@H](NC(=O)[C@@H](NC(=O)[C@H](CC(=O)O)NC(=O)CNC(=O)[C@@H](NC(=O)[C@H](C)NC(=O)CNC(=O)[C@H](CCCCN)NC(=O)[C@H](CC(C)C)NC(=O)[C@H](CC(C)C)NC(=O)[C@H](CCCCN)NC(=O)CNC(=O)[C@@H](NC(=O)[C@@H](N)CC(C)C)C(C)C)C(C)C)C(C)C)CSSC[C@@H](C(=O)O)NC1=O` — result for “log2 fold change”: -2.31 (RNA-seq, refers to: Ihh mRNA; mouse traumatic brain injury, frontal cortex and hippocampus; dose not given; relative to: TBI plus compound vs TBI).
`CCSc1nc2ccccc2n1Cc1nnc(-c2ccc(C)o2)o1` has an EC50 of 0.26 ± 0.01 µg/mL (relaxation; isolated rabbit jejunum; spontaneous contractions).
`C[C@]1(CO)Cc2ncn(-c3ccc(C#N)c(Cl)c3)c2C(=O)O1` — result for plasma ACTH: “no effect” (human, plasma; concentration not given, European SRD and MRD studies).
For `C[C@H]1O[C@@H](O[C@H]2CC[C@@]3(C)[C@@H](CC[C@]4(C)[C@@H]3C=C[C@]35OC[C@@]6(CCC(C)(C)C[C@H]63)[C@@H](O)C[C@]54C)[C@]2(C)CO)[C@H](O)[C@@H](O[C@@H]2O[C@H](CO)[C@@H](O)[C@H](O)[C@H]2O)[C@H]1O`, the AST activity was 67.6 U/L and 48.1 U/L and 67.3 U/L and 71.1 U/L and 87.3 U/L and 75.6 U/L (mouse, ethanol-fed, hepatic SIRT1 knockdown, plasma; dose not given, 5 h, high dose).
The event-free survival of `CN1CCN(S(=O)(=O)c2cc([N+](=O)[O-])ccc2N(CCOS(C)(=O)=O)CCOS(C)(=O)=O)CC1` is reported as 38.8 days (NSG mice, sample CG PDX; intraperitoneal, 25 mg/kg weekly x3).
With `CNC(=O)c1c(C)oc2cc(Oc3ccnc4cc(OCCN5CCOCC5)ccc34)ccc12` the decrease was 42% (refers to: soluble VEGFR-2; patients, plasma; 6 mg twice daily, cycle 2 day 1).
`C[C@]12CC[C@H](n3ccnc3)CC1=CC[C@@H]1[C@@H]2CC[C@]2(C)C(n3cnc4ccccc43)=CC[C@@H]12`: “AR-V7 protein level” “decreased” (Western blot; male NRG mouse, CWR22Rv1 xenograft, tumour; dose not given, day 16).
For `CCCCC1(CCCC)CN(c2ccccc2)c2cc(SC)c(OCC(=O)N[C@@H](C(=O)NCC(=O)O)c3ccccc3)cc2S(=O)(=O)C1`, the serum HDL-C was 52.1 mg/dL (refers to: HDL cholesterol; human, serum; 2.5 mg once daily, day 13).
With `CCSc1nc2ccccc2n1Cc1nnc(-c2ccccc2OC)o1` the EC50 was 0.49 ± 0.15 µg/mL (relaxation, calcium antagonist; isolated rabbit jejunum; with: 80 mM K+ contraction).
For `C[C@]12CC[C@H](O)C[C@H]1CC[C@@H]1[C@@H]2CC[C@]2(C)[C@@H](c3ccc(=O)oc3)CC[C@]12O`, the tumour volume was 69.7 mm3 and 43.2 mm3 and 44.7 mm3 and 46.3 mm3 and 31.8 mm3 and 50 mm3 and 28.9 mm3 (female nude mouse LCC2 xenograft; 1.0 mg/kg, day 11, tamoxifen-resistant).

A few entries again:
`Clc1cc2c(cc1Cl)Oc1cc(Cl)c(Cl)cc1O2` gave a mRNA level of 5.3 fold (RNA-Seq, refers to: Ptgis; female Sprague-Dawley rat, liver; dose not given; relative to: vehicle).
The EC50 of `CCSc1nc2ccccc2n1Cc1nnc(-c2ccc(F)c(OC)c2)o1` is reported as 0.28 ± 0.21 µg/mL (relaxation; isolated rabbit jejunum; spontaneous contractions).
